Measured values gathered from unrelated publications.
Parts stem from different laboratories: compare values within a part only. Substitutions count along the parent as printed.

Sample 1 — method: RNA Bind-n-Seq; molecule type: RNA; sample: in vitro; concentration: 365 nM; relative to: no-protein control; direction: higher = stronger binding
Target: RNA binding protein fox-1 homolog 2, RRM domain, GST-SBP tag (RBFOX2, Homo sapiens, UniProt O43251-10, residues 100-194)
Setting: natural RNA segment, single round, ends assumed
Shared flanks, not repeated: GGGAGUUCUACAGUCCGACGAUC … UGGAAUUCUCGGGUGCCAA
Construct (chain): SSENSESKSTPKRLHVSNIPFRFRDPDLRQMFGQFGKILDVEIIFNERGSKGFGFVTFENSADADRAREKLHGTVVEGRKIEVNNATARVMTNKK
For `UCAUGGCUGAACCUCUGAGACUGAGCCUUGGGGAGCACAGCUCUACUCUGGUUACACGGAUCACCUUUGUUGUGCUAGAAUGGAAGCUACAUUUCUGGAAUGUGUGUACC`, “RBNS enrichment (R)” read 0.684.
Under “RBNS enrichment (R)”, `CACAGCUUCCUCUCUUAUAUUAAUUGAUGGAAUUUUACUGUAUGUGCCUCUGUACAAGAUGUAGCUUUGAGAGCUACAAAAUGAUAACACUGCUUUAUUACACACUGGUU` is recorded as 0.448.
`CAUAGGCAUUUUAAGAGAACAGAAUGGUAGCAUAAUUUAACCCUGCACUGAGCAGGAACAUUGAAGAGUUGGGUGGUCGCACUGGUGUUAGCUGAAGAUGGGAAAGACUC` — result for “RBNS enrichment (R)”: 2.2.
`GCUCCACCUCCAAGCUCAGACAGGGCCCAGGCUUGGGGAACAGAGAGAGCAGGUGUACACCCAACCAAAGUGAUUGUGCCCUUGGUUGGGGGGCGCGGGCAUAUAACCUG`: “RBNS enrichment (R)” 0.559.
Under “RBNS enrichment (R)”, `UAAGGUCCUGCUUUCUCCACCUGGAACCAAUGUCGGCAAUACCUAGUCCCACUUCUCAAACUGGAGCCUCCUCCUUUAUGUAUUUAUAUGUAUGUUUUAUGUAGUCCUCC` is recorded as 1.25.
For `UAUAUUUUUGUUCUCAGAUUCAAGAAAGCAACUACUUUGGACCAAAAGCCAUGGCCCAGAGAAUUGGGCCAGUAGAACCUAAGCCACACCUGAGGCCAGCUCUGGUCAGU`, “RBNS enrichment (R)” read 0.186.
`CUACUUGUGACUUUCCAACCUGGUAACUUCCACUGAAUUCUGGAAAGAGAAAUUCUUGAGGACCCUGGCAAGUUGGGCCCUGACCUUUCUGUUGCUGUCUCUUGCUGGUG` — result for “RBNS enrichment (R)”: 0.301.
`CAGUAGCACAUUAAUUUAAAUCUGUGUUUUUAACUACCGUGGGAGGAACUAUCCCACCAAAGUGAGAACGUUAUGUCAUGGCCAUACAAGUAGUCUGUCAACCUCAGACA` — result for “RBNS enrichment (R)”: 0.459.
`UGAGAGUUGUCUCUGUUGGUCCACUGUGUUUAGUUGCAAGGAUUUUUCCAUGUGUGGUGGUGUUUUUUGUUACUGUUUUAAAGGGUGCCCAUUUGUGAUCAGCAUUGUGA` — result for “RBNS enrichment (R)”: 5.6.
`UCUGAGGUGAAAGACCUUCUUCUCAGGGGGCAGGCUCCACCAGGAAUGGAGGAUCAAUCGCUGUAAUAUUCUAGUGUUGAGUGUAGCUCUUGGGGUCUGAACUAUGGAGG`: “RBNS enrichment (R)” 0.724.
`GUUAUCAAAAAUUUCAUGGAAGGACCACAUUUUAUAUUUAUUGUGCUUCGAGUGACUGACCCCAGUGGUAUCCUGUGACAUGUAACAGCCAGGAGUGUUAAGCGUUCAGU`: “RBNS enrichment (R)” 0.829.
For `ACUGAGCUGGAGCCCGCCUGGAGAGACAGACACGUGUGAGUGGUCAGGCAUCUUCCCUUCACUCAAGCUUGGCUGCUUUCCUAGAUCCACACUUUCAAAGAGAAACCCCU`, “RBNS enrichment (R)” read 0.365.

Sample 2 — method: RNA Bind-n-Seq; molecule type: RNA; sample: in vitro; concentration: 100 nM; relative to: input RNA pool; direction: higher = stronger binding
Target: RING finger protein unkempt homolog, zinc fingers 1-6, SBP tag (UNK, Homo sapiens, UniProt Q9C0B0, residues 30-357)
UniProt Q9C0B0, sequence (30-357, looked up): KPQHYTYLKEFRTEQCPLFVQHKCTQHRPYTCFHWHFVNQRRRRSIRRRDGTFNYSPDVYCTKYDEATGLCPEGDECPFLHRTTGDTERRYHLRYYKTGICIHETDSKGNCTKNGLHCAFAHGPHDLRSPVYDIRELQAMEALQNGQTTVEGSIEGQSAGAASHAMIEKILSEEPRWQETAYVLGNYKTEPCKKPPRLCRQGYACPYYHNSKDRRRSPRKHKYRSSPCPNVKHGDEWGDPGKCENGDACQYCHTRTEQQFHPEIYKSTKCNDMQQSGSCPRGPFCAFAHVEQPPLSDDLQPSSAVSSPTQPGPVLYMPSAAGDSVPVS
Setting: RNA with constant flanks, vertebrate orthologous sites, ends assumed
Shared flanks, not repeated: GGGAGUUCUACAGUCCGACGAUC … CAACAGAGGAUUGAGCAUCA
The bound/input enrichment of `GACAGAGGCACUUUCUCCUUUGGUCUUUCGUUCUAAGAAGAAAAGGACCCAUGCACAUUUAUAGCUUUCUAAUAGCAUUAAAACCAAGGCCUUUUGUAGACUCCUAUUUUUGAUGUAUAU` is reported as 0.42 ratio.
`UGGGUUAUUCCUAUAAUUAUCAAGUAGCUGGAAUUGUGAAGGUCGGAGUAGUUAGAUCUUUAGCUUUUAUUCCUUUUUUUUGUAUUACUAUCCAUGUGUAUAAAUUAUUGAUCAUGUUGC` gave a bound/input enrichment of 2.17 ratio.
For `GAACAUAUGUAGAAAACAACUUUCACUGAACCCAUUGUCAAGUUUUCCCCUAGCAUUUUAUUUGGACUUCUUUUGUUUUAUACAAGCUUGCAGUGUUUGUCAUUAUUAGUCCACAAUUUA`, the bound/input enrichment was 1.12 ratio.
With `GAUAUUGAAUAGUAUUAAACAUUUUCGUCUUCCUUUAUCUUUUAUCUCCUACCCAAUAUUUAGUCUACUUUUUAAAAUUUCAGACUUCACUGCUCUUUGAACUGAUAGUUCCAAUUUUCA` the bound/input enrichment was 1.13 ratio.
With `UGAAAGUUACAGACAAGAGUCUGAAAGUAGAAAUACAGGAUCCUGGUUAUCAUCAUCUCUACGAAACAGAUGUACACCUCUGUUCUCCAGAAGGCGGCGAGAAGGAAGAGAUGAAUCUGC` the bound/input enrichment was 0.174 ratio.
`UGAGGGAGAGAUUUCUGUGCUUUCUCAUAUUUAAUUUGCUGUUUUUAAGAUAUUCCAACCUAGAGUUUUUGAUGGAACUGAUAUAUUGACAGUUCUCACCUAAGUCCUUUUAUAAAGAAU` gave a bound/input enrichment of 1.23 ratio.
For `GUGCAAGGAAAUUAUUCCAACUAGUGAAUUUAUUAACAGUAAGUUAACAGCAAAAGCAAAUAGGCAACUUCAAGAUCCUUUAGUAAUCAUGACAGGAAACAUCCCAACAUGGCUUACUGA`, the bound/input enrichment was 1.05 ratio.
For `UUCAUUAUCUGUCCAAGGUUGAGGUCACAGAGUUCGAGGACAUCAAGUCUGGAUACAGAAUAGAUUUUUCUCAGGUUGAUUCUCUUAGUUUGUUCUGAAGCUGAUGAUGAUGAUUUCUGA`, the bound/input enrichment was 0.261 ratio.

Sample 3 — method: DHFR PCA, deep sequencing; sample: yeast; added: (+)-ABA 710 µM; relative to: wild-type fitted maximum; direction: higher = stronger binding
Target: ABI1, truncated, D143A, DHFR fusion (Arabidopsis thaliana)
Setting: methotrexate growth selection, single substitutions
Starting sequence: PYL1, truncated, DHFR fusion (Arabidopsis thaliana); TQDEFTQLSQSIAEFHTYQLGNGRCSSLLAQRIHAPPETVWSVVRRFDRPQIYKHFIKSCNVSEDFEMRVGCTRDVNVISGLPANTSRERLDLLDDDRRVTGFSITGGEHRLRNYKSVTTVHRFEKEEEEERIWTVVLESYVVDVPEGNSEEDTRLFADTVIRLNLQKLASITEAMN; partner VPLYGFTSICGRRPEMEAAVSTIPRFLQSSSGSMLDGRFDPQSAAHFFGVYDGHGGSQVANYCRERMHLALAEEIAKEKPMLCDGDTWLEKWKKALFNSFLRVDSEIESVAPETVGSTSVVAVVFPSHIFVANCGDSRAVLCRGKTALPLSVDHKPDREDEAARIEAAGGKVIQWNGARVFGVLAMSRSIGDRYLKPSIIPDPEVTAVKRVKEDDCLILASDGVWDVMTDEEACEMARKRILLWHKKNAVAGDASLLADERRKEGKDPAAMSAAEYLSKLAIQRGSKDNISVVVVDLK
Under “relative binding score”, `A13W` is recorded as 93.9%.
Under “relative binding score”, `W134L` is recorded as 108%.
`T135S` — result for “relative binding score”: 111%.
`K54M` — result for “relative binding score”: -3.06%.
`H34R` — result for “relative binding score”: 90.1%.
`R74W` — result for “relative binding score”: -5.97%.
`E152D`: “relative binding score” 103%.
For `L112T`, “relative binding score” read 23%.
`A84I`: “relative binding score” 11.5%.
`T39Q`: “relative binding score” 93.7%.
`V142D`: “relative binding score” 86.1%.
For `D3S`, “relative binding score” read 97.1%.
For `L82P`, “relative binding score” read 85.9%.
Under “relative binding score”, `S42M` is recorded as 99%.

Sample 4 — target: CCNB2, cyclin fold, Cln2 fusion (human); method: yeast growth competition, sequencing; sample: yeast; setting: strong parent motif; relative to: not given; direction: higher = stronger binding
Starting sequence: MICAL3 docking peptide (human); LQLRRQLSFSEDS
Under “normalised enrichment score”, `LQLMRQLSFSEDS [R4M]` is recorded as 0.71.
For `LQLRPQLSFSEDS [R5P]`, “normalised enrichment score” read 0.113.
For `LQLRRQASFSEDS [L7A]`, “normalised enrichment score” read -0.198.
`LQLRRQLSYSEDS [F9Y]`: “normalised enrichment score” 2.32.
`LQLRRQLEFSEDS [S8E]` — result for “normalised enrichment score”: 0.878.
For `LNLRRQLSFSEDS [Q2N]`, “normalised enrichment score” read 3.41.
`LQLRRILSFSEDS [Q6I]`: “normalised enrichment score” 1.85.
Under “normalised enrichment score”, `LLLRRQLSFSEDS [Q2L]` is recorded as 3.17.
Under “normalised enrichment score”, `LQHRRQLSFSEDS [L3H]` is recorded as 0.267.
Under “normalised enrichment score”, `LQLPRQLSFSEDS [R4P]` is recorded as 0.36.
`LQLRRQLSGSEDS [F9G]` — result for “normalised enrichment score”: -0.121.
`LQLRRQLSFGEDS [S10G]` — result for “normalised enrichment score”: 3.18.
`LQARRQLSFSEDS [L3A]`: “normalised enrichment score” 0.826.
Under “normalised enrichment score”, `LQLRRQLSFREDS [S10R]` is recorded as 1.87.
For `LQLRCQLSFSEDS [R5C]`, “normalised enrichment score” read 1.19.
`LQLRRQLSPSEDS [F9P]` — result for “normalised enrichment score”: 0.304.
For `LQLRRQSSFSEDS [L7S]`, “normalised enrichment score” read -0.434.
Under “normalised enrichment score”, `LELRRQLSFSEDS [Q2E]` is recorded as 3.17.
For `LQLRRQLSFSCDS [E11C]`, “normalised enrichment score” read 1.97.
For `LQLRRQLLFSEDS [S8L]`, “normalised enrichment score” read 1.07.
`LQLRRQLSWSEDS [F9W]` — result for “normalised enrichment score”: 1.63.
`LQFRRQLSFSEDS [L3F]` — result for “normalised enrichment score”: 0.811.
`LQLRRQLSFSEAS [D12A]` — result for “normalised enrichment score”: 3.4.
Under “normalised enrichment score”, `LQLRTQLSFSEDS [R5T]` is recorded as 0.555.
`LQLRRQLKFSEDS [S8K]` — result for “normalised enrichment score”: 1.1.

Sample 5 — target: ATF7, bZIP domain (human); method: DHFR protein complementation; sample: yeast; relative to: wild-type JUN-FOS pair; direction: higher = stronger binding
Setting: single substitutions, most at no-binding floor
Starting sequence: JUN, bZIP domain (human); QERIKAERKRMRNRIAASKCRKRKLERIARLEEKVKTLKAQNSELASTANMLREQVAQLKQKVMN; partner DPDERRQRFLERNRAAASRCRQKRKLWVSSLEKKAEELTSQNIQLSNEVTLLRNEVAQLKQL
The binding fitness of `T48K` is reported as -0.983 natural log.
With `R53N` the binding fitness was -1.45 natural log.
For `N42V`, the binding fitness was -1.41 natural log.
With `R53W` the binding fitness was -1.55 natural log.
`A49L` gave a binding fitness of -1.05 natural log.
For `V56C`, the binding fitness was -1.28 natural log.
With `R30A` the binding fitness was -0.539 natural log.
The binding fitness of `N42L` is reported as -1.38 natural log.
The binding fitness of `I28R` is reported as -0.962 natural log.
`A29G` has a binding fitness of -1.15 natural log.
For `A57T`, the binding fitness was -1.05 natural log.
`K39F` gave a binding fitness of -1.33 natural log.

Single results of other studies
For `PhoQ, residues 284 288 289 292 302 303 ALSMDL`, the fold induction was 5.39 (PhoP, residues 12 14 15 18 19 VHSCL (Escherichia coli, UniProt P23836); Sort-seq, measured: YFP reporter; E. coli; PhoQ-PhoP variant library, added: 10 µM Mg2+; relative to: high Mg2+ state, higher = stronger signaling).

Some of these lines once more (sample 3):
`K54M` — result for “relative binding score”: -3.06%.
`H34R` — result for “relative binding score”: 90.1%.
`R74W` — result for “relative binding score”: -5.97%.
`E152D`: “relative binding score” 103%.
For `L112T`, “relative binding score” read 23%.
`A84I`: “relative binding score” 11.5%.
`T39Q`: “relative binding score” 93.7%.
`V142D`: “relative binding score” 86.1%.
For `D3S`, “relative binding score” read 97.1%.
For `L82P`, “relative binding score” read 85.9%.
Under “relative binding score”, `S42M` is recorded as 99%.
